Experimental data from different studies.
Lines come from different studies, so protocols differ. ± marks the error that the study gave.
Beta-lactamase CTX-M-27: Beta-lactamase CTX-M-27 (Escherichia coli, UniProt Q840M4)
UniProt Q9LIR4, sequence (whole entry, looked up): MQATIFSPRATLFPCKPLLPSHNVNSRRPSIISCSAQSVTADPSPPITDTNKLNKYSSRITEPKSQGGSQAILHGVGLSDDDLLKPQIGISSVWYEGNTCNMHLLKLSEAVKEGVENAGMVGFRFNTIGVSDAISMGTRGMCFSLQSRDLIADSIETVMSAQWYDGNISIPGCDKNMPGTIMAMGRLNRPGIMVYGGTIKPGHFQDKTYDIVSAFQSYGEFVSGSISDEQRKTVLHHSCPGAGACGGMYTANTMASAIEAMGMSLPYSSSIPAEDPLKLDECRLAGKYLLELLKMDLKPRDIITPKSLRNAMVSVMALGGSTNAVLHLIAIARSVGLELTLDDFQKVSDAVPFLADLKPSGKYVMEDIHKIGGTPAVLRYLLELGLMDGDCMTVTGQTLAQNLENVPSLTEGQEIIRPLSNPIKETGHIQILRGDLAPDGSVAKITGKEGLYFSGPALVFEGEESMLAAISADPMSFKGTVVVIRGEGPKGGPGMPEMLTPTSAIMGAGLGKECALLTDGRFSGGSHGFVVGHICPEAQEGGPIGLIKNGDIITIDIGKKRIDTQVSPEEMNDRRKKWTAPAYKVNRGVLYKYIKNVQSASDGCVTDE
UniProt Q07741, sequence (whole entry, looked up): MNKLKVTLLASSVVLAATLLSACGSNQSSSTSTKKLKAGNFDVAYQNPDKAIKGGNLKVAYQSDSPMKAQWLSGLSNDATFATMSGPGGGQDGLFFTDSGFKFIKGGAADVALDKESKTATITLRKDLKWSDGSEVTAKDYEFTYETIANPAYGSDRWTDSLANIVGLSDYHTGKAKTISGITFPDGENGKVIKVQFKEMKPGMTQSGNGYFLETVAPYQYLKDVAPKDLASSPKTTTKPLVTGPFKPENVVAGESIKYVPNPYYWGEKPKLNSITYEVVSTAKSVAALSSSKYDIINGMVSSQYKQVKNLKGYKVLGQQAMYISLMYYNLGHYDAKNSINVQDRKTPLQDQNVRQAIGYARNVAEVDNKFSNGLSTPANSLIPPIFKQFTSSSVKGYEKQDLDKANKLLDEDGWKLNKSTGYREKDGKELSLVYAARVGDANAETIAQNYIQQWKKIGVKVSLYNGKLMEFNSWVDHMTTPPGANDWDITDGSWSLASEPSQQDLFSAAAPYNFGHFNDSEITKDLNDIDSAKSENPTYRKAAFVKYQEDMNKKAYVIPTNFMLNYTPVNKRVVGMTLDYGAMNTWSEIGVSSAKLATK
UniProt B9K712, sequence (whole entry, unmodified, looked up): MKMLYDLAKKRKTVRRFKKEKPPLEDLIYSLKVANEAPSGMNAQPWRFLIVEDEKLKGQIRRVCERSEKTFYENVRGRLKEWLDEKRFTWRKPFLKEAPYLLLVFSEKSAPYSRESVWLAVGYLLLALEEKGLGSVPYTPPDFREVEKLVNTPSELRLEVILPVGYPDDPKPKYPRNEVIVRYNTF
UniProt Q6GIL5, sequence (whole entry, looked up): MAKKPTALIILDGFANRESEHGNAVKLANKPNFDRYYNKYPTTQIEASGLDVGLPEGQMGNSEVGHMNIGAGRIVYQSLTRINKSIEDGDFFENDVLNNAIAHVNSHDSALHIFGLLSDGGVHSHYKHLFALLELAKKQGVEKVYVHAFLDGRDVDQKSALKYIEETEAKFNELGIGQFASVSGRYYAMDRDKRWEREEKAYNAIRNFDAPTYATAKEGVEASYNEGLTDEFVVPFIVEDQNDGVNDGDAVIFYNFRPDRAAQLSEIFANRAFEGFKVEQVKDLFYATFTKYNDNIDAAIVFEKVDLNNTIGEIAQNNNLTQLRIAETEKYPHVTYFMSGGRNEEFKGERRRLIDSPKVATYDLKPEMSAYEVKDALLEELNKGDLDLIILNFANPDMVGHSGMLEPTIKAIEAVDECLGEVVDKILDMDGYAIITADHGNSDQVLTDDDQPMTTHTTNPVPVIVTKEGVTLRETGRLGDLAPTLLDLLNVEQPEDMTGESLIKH
UniProt P37353, sequence (whole entry, looked up): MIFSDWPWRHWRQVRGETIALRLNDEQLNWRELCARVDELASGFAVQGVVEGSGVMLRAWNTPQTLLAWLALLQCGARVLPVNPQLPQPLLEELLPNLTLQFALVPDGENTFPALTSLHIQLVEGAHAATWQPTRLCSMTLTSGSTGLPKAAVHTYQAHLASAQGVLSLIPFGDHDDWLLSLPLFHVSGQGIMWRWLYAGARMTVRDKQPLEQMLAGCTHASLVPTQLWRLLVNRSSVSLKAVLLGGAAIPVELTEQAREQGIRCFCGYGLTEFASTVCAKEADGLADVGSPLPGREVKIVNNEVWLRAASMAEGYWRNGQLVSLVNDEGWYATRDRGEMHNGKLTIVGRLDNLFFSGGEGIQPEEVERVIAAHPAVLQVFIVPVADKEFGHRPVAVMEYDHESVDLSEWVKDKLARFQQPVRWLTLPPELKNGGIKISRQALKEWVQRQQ
UniProt O95147, sequence (whole entry, unmodified, looked up): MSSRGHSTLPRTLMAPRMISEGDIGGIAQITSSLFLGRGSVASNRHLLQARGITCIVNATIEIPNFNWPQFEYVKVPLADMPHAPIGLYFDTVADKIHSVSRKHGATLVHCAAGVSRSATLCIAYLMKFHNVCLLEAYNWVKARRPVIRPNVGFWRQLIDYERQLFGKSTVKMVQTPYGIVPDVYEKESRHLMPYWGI
UniProt Q13526, sequence (whole entry, looked up): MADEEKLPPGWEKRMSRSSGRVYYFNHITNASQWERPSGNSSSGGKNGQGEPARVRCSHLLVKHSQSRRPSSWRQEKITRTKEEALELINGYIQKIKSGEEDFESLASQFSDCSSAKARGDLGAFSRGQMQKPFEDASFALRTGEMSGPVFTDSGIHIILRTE
UniProt P0DMV8, sequence (whole entry, looked up): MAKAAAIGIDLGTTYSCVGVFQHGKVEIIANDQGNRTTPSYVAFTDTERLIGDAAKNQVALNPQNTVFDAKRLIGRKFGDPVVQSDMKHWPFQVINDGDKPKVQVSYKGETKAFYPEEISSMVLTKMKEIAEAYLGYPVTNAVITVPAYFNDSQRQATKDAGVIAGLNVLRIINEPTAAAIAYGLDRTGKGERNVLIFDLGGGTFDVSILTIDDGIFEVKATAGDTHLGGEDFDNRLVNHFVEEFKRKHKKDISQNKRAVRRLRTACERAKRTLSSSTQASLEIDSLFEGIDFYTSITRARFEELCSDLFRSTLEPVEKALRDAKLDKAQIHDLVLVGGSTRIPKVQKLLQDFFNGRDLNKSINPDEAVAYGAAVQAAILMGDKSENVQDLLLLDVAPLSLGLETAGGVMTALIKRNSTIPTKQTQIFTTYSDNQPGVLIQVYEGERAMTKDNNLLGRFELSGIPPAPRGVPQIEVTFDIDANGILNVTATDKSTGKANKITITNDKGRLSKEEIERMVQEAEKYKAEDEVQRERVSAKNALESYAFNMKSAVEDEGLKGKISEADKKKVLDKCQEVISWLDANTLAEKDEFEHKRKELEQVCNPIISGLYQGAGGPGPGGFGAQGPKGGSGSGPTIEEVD
UniProt A6TAP2, sequence (whole entry, looked up): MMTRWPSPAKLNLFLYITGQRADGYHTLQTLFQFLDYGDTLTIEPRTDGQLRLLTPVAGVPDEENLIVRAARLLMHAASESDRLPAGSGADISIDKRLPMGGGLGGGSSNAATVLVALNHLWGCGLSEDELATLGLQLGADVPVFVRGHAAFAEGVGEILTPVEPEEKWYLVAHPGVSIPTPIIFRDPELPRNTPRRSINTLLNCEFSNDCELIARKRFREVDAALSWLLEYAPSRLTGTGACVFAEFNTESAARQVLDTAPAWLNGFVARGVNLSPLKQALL
UniProt P69905, sequence (whole entry, looked up): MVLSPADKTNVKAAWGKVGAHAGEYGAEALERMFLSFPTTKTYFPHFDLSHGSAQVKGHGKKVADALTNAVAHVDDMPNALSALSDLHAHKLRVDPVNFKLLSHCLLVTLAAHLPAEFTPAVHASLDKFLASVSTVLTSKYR

CCOC(=O)CCCOc1ccc(C(c2cc3c4c(c2)CCCN4CCC3)=c2cc3c4c(c2)CCC[N+]=4CCC3)cc1  Kd (dL5** fluorogen-activating protein; fluorescence turn-on): 0.061 µM
CN(C)c1ccc2c(-c3ccc(C(=O)NCCCC[C@H](NC(=O)COCCOCCNC(=O)CC[C@@H]4NC(=O)[C@@H](CCCNC(=N)N)NC(=O)[C@H](CCCNC(=N)N)NC(=O)[C@@H](CCCNC(=N)N)NC(=O)[C@H](CCCNC(=N)N)NC(=O)[C@H](Cc5csc6ccccc56)NC(=O)[C@@H](Cc5ccccc5)NC(=O)[C@H](Cc5ccccc5)NC4=O)C(N)=O)cc3C(=O)[O-])c3ccc(=[N+](C)C)cc-3oc2c1  Kd (fetal bovine serum proteins; binding, fluorescence polarization; 1 h): 68 ± 9 µM
CC(C)C[C@H](NC(=O)[C@H](Cc1ccc(OP(=O)(O)O)cc1)NC(=O)[C@H](CCC(=O)O)NC(=O)[C@H](CC(=O)O)NC(=O)[C@H](C)NC(=O)[C@H](CC(=O)O)NC(=O)[C@@H](NC(=O)CCCCCNC(=O)CCCC[C@@H]1SC[C@@H]2NC(=O)N[C@@H]21)C(C)C)C(N)=O  Kd (DUSP14 (Homo sapiens, UniProt O95147, C111S); binding): 1.4 ± 1.3 µM
CSCC[C@H](N)C(=O)N[C@@H](CC(=O)O)C(=O)N[C@@H](CO)C(=O)N[C@@H](Cc1ccccc1)C(=O)N[C@@H](CC(N)=O)C(=O)N[C@@H](C)C(=O)N[C@H](C(=O)N[C@H](C(=O)N1CCC[C@H]1C(=O)N[C@@H](CC(=O)O)C(=O)N[C@@H](C)C(=O)NCC(=O)N[C@@H](Cc1c[nH]cn1)C(=O)N[C@@H](C)C(=O)N[C@@H](CC(=O)O)C(=O)N[C@@H](CC(=O)O)C(=O)N[C@@H](CCCCN)C(=O)N[C@@H](CC(=O)O)C(=O)N[C@H](C(=O)N[C@@H](CC(C)C)C(=O)N[C@@H](CC(=O)O)C(=O)N[C@@H](CC(C)C)C(=O)N[C@@H](CC(N)=O)C(=O)N[C@H](C(=O)N1CCC[C@H]1C(=O)N[C@H](C(=O)N[C@@H](CC(=O)O)C(=O)N[C@@H](CCCCN)C(=O)O)C(C)C)[C@@H](C)O)[C@@H](C)O)[C@@H](C)O)[C@@H](C)O  Kd (Complement C5, C5a fragment (Homo sapiens, UniProt P01031); circular dichroism titration; pH 7.4, 25 °C): ~0.123 µM
CC[C@H](C)[C@H]1C(=O)O[C@H](C(C)C)C(=O)N(C)[C@@H]([C@@H](C)CC)C(=O)O[C@H](C(C)C)C(=O)N(C)[C@@H]([C@@H](C)CC)C(=O)O[C@H](C(C)C)C(=O)N1C  Kd (HSPA1A (Homo sapiens, UniProt P0DMV8); binding, SPR): ~246 µM
CCCCCCCCCCCCCC(=O)N[C@H](CCN)C(=O)N[C@@H]1C(=O)N[C@@H](CCN)C(=O)N[C@@H](CC(C)C)C(=O)N[C@@H](CCN)C(=O)N[C@H](Cc2ccccc2)C(=O)N[C@@H](CC(C)C)C(=O)N[C@@H](CCN)C(=O)N[C@H](CCN)C(=O)N[C@@H](C(C)C)C(=O)N[C@@H](CC(=O)O)C(=O)O[C@@H]1C  Kd (lipoteichoic acid; binding, isothermal titration calorimetry; pH 7.4, 25 °C): 5.61 ± 3.53 µM
O=C(O)c1cc(Br)c[nH]1  Kd (4-diphosphocytidyl-2-C-methyl-D-erythritol kinase (ispE, Klebsiella pneumoniae subsp. pneumoniae, UniProt A6TAP2); binding, microscale thermophoresis; Klebsiella pneumoniae): 213 µM
Nc1ncnc2c1ncn2[C@@H]1O[C@H](COc2cncc(CCC(=O)c3ccccc3C(=O)O)c2)[C@@H](O)[C@H]1O  Kd (2-succinylbenzoate--CoA ligase (menE, Escherichia coli, UniProt P37353); isothermal titration calorimetry; 22 °C): 0.505 µM
CCCC[C@H]1C(=O)N[C@@H](C(C)C)C(=O)N[C@@H](Cc2ccc(O)cc2)C(=O)N[C@@H](C(C)C)C(=O)N[C@@H](CCCNC(=N)N)C(=O)N[C@@H](Cc2ccc(O)cc2)C(=O)N[C@@H](CCC(N)=O)C(=O)N(C)[C@@H](Cc2ccccc2)C(=O)N[C@H](C(N)=O)CSCC(=O)N[C@@H](Cc2ccccc2)C(=O)N[C@@H](Cc2c[nH]c3ccccc23)C(=O)N[C@@H](CC(C)C)C(=O)NCC(=O)N[C@@H](CCCCN)C(=O)N1C  Kd (AT-rich interactive domain-containing protein 1B (ARID1B, Homo sapiens, UniProt Q8NFD5); SPR; 278 K): 0.017 µM
COc1cc(C=O)ccc1OCc1cccc(CO)n1  Kd (Hemoglobin subunit alpha, with beta chain (HBA1, Homo sapiens, UniProt P69905); binding, cation-exchange HPLC-UV/Vis; kinetic Kd from koff/kon): 550 µM
N=C(N)NCCC[C@H](NC(=O)[C@H](Cc1ccccc1)NC(=O)[C@@H]1CCCN1C(=O)[C@H](CO)NC(=O)[C@H](Cc1ccccc1)NC(=O)CNC(=O)[C@@H]1CCCN1C(=O)[C@@H]1CCCN1C(=O)[C@@H](N)CCCNC(=N)N)C(=O)N[C@@H](CCCCNS(=O)(=O)c1ccc(C2=c3cc4c5c(c3Oc3c2cc2c6c3CCCN6CCC2)CCC[N+]=5CCC4)c(S(=O)(=O)[O-])c1)C(=O)O  Kd (Oligopeptide-binding protein OppA (oppA, Lactococcus lactis subsp. lactis, UniProt Q07741); binding, fluorescence anisotropy; pH 7, 37 °C, with: dye-labelled peptide): 22.9 ± 0.5 µM
COC(=O)[C@H](Cc1ccccc1)NC(=O)[C@@H]1CCCN1C(=O)[C@H](CO)NC(=O)[C@H](C)NC(C)=O  Kd (PIN1 (Homo sapiens, UniProt Q13526); binding; pH 7.4): 4.5 µM
N[C@@H](Cc1ccc(O)c(I)c1)C(=O)O  Kd (Iodotyrosine deiodinase (IYD, Thermotoga neapolitana, UniProt B9K712, M41F); FMN fluorescence quenching; 25 °C, M41F variant): 0.5 ± 0.1 µM
CC[C@H](C)[C@H](NC(=O)[C@H](CCCCN)NC(=O)[C@@H](NC(=O)[C@@H](NC(=O)[C@H](C)NC(=O)[C@@H]1CCCN1C(=O)[C@H](CC(C)C)NC(=O)[C@H](Cc1c[nH]c2ccccc12)NC(=O)[C@@H](NC(C)=O)[C@@H](C)O)C(C)C)[C@@H](C)CC)C(=O)N[C@@H](CCC(N)=O)C(=O)N[C@@H](C)C(=O)N[C@@H](Cc1c[nH]cn1)C(=O)N[C@@H](Cc1c[nH]c2ccccc12)C(=O)N[C@@H](CCCNC(=N)N)C(=O)NCC(=O)N[C@@H](Cc1ccc(O)cc1)C(=O)N[C@@H](CCCNC(=N)N)C(=O)N[C@@H](CCC(N)=O)C(=O)N[C@@H](CCCNC(=N)N)C(=O)N[C@@H](CCCCN)C(=O)N[C@H](C(=O)N[C@@H](Cc1ccc(O)cc1)C(=O)N[C@@H](CC(C)C)C(N)=O)[C@@H](C)CC  Kd (Calmodulin-1 (CALM1, Homo sapiens, UniProt P0DP23); binding, native gel titration; 1 h, 22 °C, with: Ca2+, calmodulin 35 µM): 27 ± 4 µM
Cc1cc(-c2ccc3c(c2)CCC3O)cc(C)c1O (centres unmarked)  Kd (Estrogen receptor (ESR1, Homo sapiens, UniProt P03372); binding, competitive radioligand binding): 10 µM
CCCN1C(=O)C(O)(C(=O)O)Oc2cc(F)ccc21 (centres unmarked)  Kd (Dihydroxy-acid dehydratase, chloroplastic (DHAD, Arabidopsis thaliana, UniProt Q9LIR4); microscale thermophoresis): < 3 µM
O=C(Nc1cccc(-c2nn[nH]n2)c1)c1cc(-c2ccncc2)cc(C(F)(F)F)c1  Kd (Beta-lactamase CTX-M-27; surface plasmon resonance; 25 °C): 5.9 ± 0.13 µM
CC(C)[C@@H]1NC(=O)[C@H](CCC(N)=O)NC(=O)[C@@H](Cc2ccc(O)cc2)NC(=O)CSC[C@@H](C(N)=O)NC(=O)[C@H](CC(=O)O)NC(=O)[C@H](CCC(=O)O)NC(=O)[C@H](Cc2c[nH]c3ccccc23)NC(=O)[C@@H]2CCCN2C(=O)[C@H](CO)N(C)C(=O)[C@H](C)NC(=O)[C@H](Cc2c[nH]c3ccccc23)NC(=O)[C@H](Cc2c[nH]c3ccccc23)NC(=O)[C@H](C(C)C)NC(=O)[C@H]([C@@H](C)O)NC1=O  Kd (2,3-bisphosphoglycerate-independent phosphoglycerate mutase (gpmI, Staphylococcus aureus, UniProt Q6GIL5); binding): 0.79 µM
CC(C)C[C@H](NC(=O)[C@@H]1CSSC[C@@H]2NC(=O)[C@H](CC(N)=O)NC(=O)[C@@H](N)CSSC[C@H](NC(=O)[C@H](CC(C)C)NC(=O)[C@H](Cc3ccccc3)NC(=O)[C@H]([C@@H](C)O)NC(=O)[C@H](CCC(=O)O)NC(=O)[C@@H]3CCCN3C(=O)[C@H](C)NC(=O)[C@H](CCCCN)NC2=O)C(=O)N[C@@H](Cc2ccc(O)cc2)C(=O)N[C@@H](Cc2c[nH]c3ccccc23)C(=O)N[C@@H](CCCNC(=N)N)C(=O)N1)C(=O)N[C@@H](CCC(N)=O)C(=O)N[C@@H](Cc1c[nH]cn1)C(N)=O  Kd (Protein Mdm4, residues 24-108 (MDM4, Homo sapiens, UniProt O15151); binding, SPR competition; synthetic MDMX 24-108, with: immobilized p53 peptide 15-29): 0.0114 ± 0.0023 µM
O=C(Nc1cccc(-c2nn[nH]n2)c1)c1cc(-c2ccncn2)cc(C(F)(F)F)c1  Kd (Beta-lactamase CTX-M-27; surface plasmon resonance; 25 °C): 2.91 ± 0.05 µM

Some of these lines once more:
CCCN1C(=O)C(O)(C(=O)O)Oc2cc(F)ccc21 (centres unmarked)  Kd (Dihydroxy-acid dehydratase, chloroplastic (DHAD, Arabidopsis thaliana, UniProt Q9LIR4); microscale thermophoresis): < 3 µM
O=C(Nc1cccc(-c2nn[nH]n2)c1)c1cc(-c2ccncc2)cc(C(F)(F)F)c1  Kd (Beta-lactamase CTX-M-27; surface plasmon resonance; 25 °C): 5.9 ± 0.13 µM
